Published values pooled from the literature.
A part holds a random share of what one study measured. Values joined by “and” are separate records of one study, mostly repeats; a detail may differ. Substitutions count along the parent as printed.

Sample 1
Target: CCNB2, cyclin fold, Cln2 fusion (human)
Technique: yeast growth competition, sequencing
Sample: yeast
Setting: weak parent motif
Baseline: not given
Direction: higher = stronger binding
Parent: RBL2 docking peptide (human); STTRRRLFVENDS
Under “normalised enrichment score”, `L7A` is recorded as 0.716.
For `T3V`, “normalised enrichment score” read 1.59.
`S13E` — result for “normalised enrichment score”: 0.891.
For `T3K`, “normalised enrichment score” read 0.368.
`F8N` — result for “normalised enrichment score”: 0.652.
`T3R` — result for “normalised enrichment score”: 1.02.
`N11P` — result for “normalised enrichment score”: 0.596.
`N11E`: “normalised enrichment score” 0.42.
`V9C`: “normalised enrichment score” 0.625.
`L7M`: “normalised enrichment score” -0.00755.

Sample 2
Target: RING finger protein unkempt homolog, zinc fingers 1-6, GST-SBP tag (UNK, Homo sapiens, UniProt Q9C0B0, residues 30-357)
Chain of UniProt Q9C0B0 (30-357, looked up): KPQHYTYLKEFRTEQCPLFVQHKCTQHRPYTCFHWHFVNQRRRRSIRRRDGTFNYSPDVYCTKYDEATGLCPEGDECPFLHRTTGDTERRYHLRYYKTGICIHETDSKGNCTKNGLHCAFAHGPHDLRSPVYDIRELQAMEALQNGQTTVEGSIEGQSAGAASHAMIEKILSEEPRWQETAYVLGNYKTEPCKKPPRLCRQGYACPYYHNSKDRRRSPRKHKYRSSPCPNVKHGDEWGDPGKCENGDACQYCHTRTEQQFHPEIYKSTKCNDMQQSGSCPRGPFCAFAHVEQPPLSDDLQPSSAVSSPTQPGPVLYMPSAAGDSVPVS
Technique: RNA Bind-n-Seq
Molecule type: RNA
Sample: in vitro
Concentration: not given
Setting: RNA with constant flanks, ends assumed
Baseline: input RNA pool
Direction: higher = stronger binding
`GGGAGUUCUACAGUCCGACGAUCCAUCUGUAAGCAGUGUGGCCUCUCUGCAGAGGUGGCAGACGUGAUUAGAACUGUGUGUGUCUCCGAGGUGACAGUGUUUAUAGCUUAUUAAAUAGUUGAUACAGAUGCCCUUAUGAAAACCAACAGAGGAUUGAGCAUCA` has a bound/input enrichment of 3.07 ratio.
For `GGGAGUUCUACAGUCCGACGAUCUCUAUUGCUACAAGAGAGGGAGUUGCUGUUCUGUAUUCUAAACUGGUUAGCAAUAAGGAAGCCGUACCUUUGCCCCAACAAGUUUUAUGCCUCAAAGGACCACAGUUGCCAGACUUUGAACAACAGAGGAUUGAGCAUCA`, the bound/input enrichment was 0.138 ratio.
For `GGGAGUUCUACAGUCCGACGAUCUACGGGAAGGAUUUCAAUGAUAUCCGCCAGGACUUUCUACCCUGGAAGUCACUUGCAAGCACCGUCCAGUUUUAUUACAUGUGGAAAACCACAGACCGGUAUAUUCAGCAGAAAAGAUUGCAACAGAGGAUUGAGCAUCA`, the bound/input enrichment was 0.195 ratio.
`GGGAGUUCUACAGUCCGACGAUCGAUCCAGAGGAAGAGGAGGUUGAGAAGGAAGGGAAUGCCACUGUGAGUUUCUCACAGGCCCUGGCCGAGUUCACCAGCAAUGGGAACCUCUUUUCCAGCAUGUCCUGCAGCUCUGACUCUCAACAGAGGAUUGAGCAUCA` has a bound/input enrichment of 0.12 ratio.
`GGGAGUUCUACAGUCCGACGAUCGAACUGGUGGAAGCUAUGUAUGGCAAACUCAGCAACCAGGAAAGGAUCACACUGUCCGACACCGUGACCGCCAAGCUAGUGGGUGAGGAGCAGCUGACAAAGGAUGACAUCUCUAUCUUUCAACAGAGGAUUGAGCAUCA` gave a bound/input enrichment of 0.11 ratio.
With `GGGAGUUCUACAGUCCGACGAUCUCGUGGGCCCCUGAGGACGCCUGGAUGGGCACUCACCCUAAGUAUCUAGAAAUGAUGGAAUCCGAUACCGGAGAUGCCACCCAAGUUUAUGUAGCGUUCUUGGUUUACCUGGACCUCAUGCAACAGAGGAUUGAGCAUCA` the bound/input enrichment was 0.28 ratio.
`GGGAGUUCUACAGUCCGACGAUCAGGCCUUGGUUUACCCCGAGAUCCAUCUAUAUGGAAGCAUCGACAGUGGACUGUAAUGAUUCCGGGCUUUUAAACUUCCCAGCCAGAUUGCCUGCCGACACACAGAUUCUGCUCCUACAGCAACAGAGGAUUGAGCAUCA` gave a bound/input enrichment of 0.217 ratio.
For `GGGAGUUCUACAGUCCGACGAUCGCUGAACCUGAUAUUAUUGAACAACUGGUGGAAUUUGCUUAUACUGCUAGAAUUUCUGUGAACCGCAACAAUGUUCAGUCUUUGUUAGAUGCAGCAAAUCAGUACCAGAUUGAACCUGUGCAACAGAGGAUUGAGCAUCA`, the bound/input enrichment was 0.144 ratio.

Sample 3
Target: PABPC1L2, full length, GST fusion (mouse, UniProt A0ABA7IW68)
Technique: RNAcompete
Molecule type: RNA
Sample: in vitro
Concentration: 20 nM
Setting: 7-mer, probes averaged, single round
Baseline: mean of 7-mers
Direction: higher = stronger binding
Target sequence (chain): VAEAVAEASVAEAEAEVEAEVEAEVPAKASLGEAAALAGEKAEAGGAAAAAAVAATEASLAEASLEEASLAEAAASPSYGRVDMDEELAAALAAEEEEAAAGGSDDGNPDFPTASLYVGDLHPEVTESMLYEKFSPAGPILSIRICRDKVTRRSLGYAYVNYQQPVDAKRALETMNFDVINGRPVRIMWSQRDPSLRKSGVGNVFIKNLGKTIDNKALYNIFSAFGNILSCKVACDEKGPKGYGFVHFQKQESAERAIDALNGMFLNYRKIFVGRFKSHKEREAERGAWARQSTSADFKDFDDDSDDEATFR
For `ACAUAGG`, the 7-mer Z-score was 0.129.
For `CUGACUU`, the 7-mer Z-score was -0.28.
For `CGACCAG`, the 7-mer Z-score was -0.0355.
`GUAUGUC` has a 7-mer Z-score of -0.22.
For `AAAGACC`, the 7-mer Z-score was 0.936.
`UUUAGAG` gave a 7-mer Z-score of 0.294.
`AAACUGG` has a 7-mer Z-score of 1.31.
`GCGUGCG` has a 7-mer Z-score of -0.161.

Mixed results
With `PhoQ, residues 284 288 289 292 302 303 SSTMSV` the fold induction was 14.5 and 7.03 (PhoP, residues 12 14 15 18 19 LWHCS (Escherichia coli, UniProt P23836); Sort-seq, measured: YFP reporter; E. coli; PhoQ-PhoP variant library, together with: 10 µM Mg2+; baseline: high Mg2+ state, higher = stronger signaling).

Excerpt of the above (sample 2):
With `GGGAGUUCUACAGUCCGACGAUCUCGUGGGCCCCUGAGGACGCCUGGAUGGGCACUCACCCUAAGUAUCUAGAAAUGAUGGAAUCCGAUACCGGAGAUGCCACCCAAGUUUAUGUAGCGUUCUUGGUUUACCUGGACCUCAUGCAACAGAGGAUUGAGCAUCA` the bound/input enrichment was 0.28 ratio.
`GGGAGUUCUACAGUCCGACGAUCAGGCCUUGGUUUACCCCGAGAUCCAUCUAUAUGGAAGCAUCGACAGUGGACUGUAAUGAUUCCGGGCUUUUAAACUUCCCAGCCAGAUUGCCUGCCGACACACAGAUUCUGCUCCUACAGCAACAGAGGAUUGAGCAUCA` gave a bound/input enrichment of 0.217 ratio.
